# Published values of several laboratories.
# A part holds a random share of what one study measured. Substitutions count along the parent as printed.

# Sample 1 — method: RNA Bind-n-Seq; molecule type: RNA; medium: in vitro; tested at: not given; relative to: input RNA pool; direction: higher = stronger binding
# Target: RING finger protein unkempt homolog, zinc fingers 1-6, GST-SBP tag (UNK, Homo sapiens, UniProt Q9C0B0, residues 30-357)
# Notes: RNA with constant flanks, human-mouse chimeric sites, ends assumed
# Shared flanks, not repeated: GGGAGUUCUACAGUCCGACGAUC … CAACAGAGGAUUGAGCAUCA
# Target sequence (chain): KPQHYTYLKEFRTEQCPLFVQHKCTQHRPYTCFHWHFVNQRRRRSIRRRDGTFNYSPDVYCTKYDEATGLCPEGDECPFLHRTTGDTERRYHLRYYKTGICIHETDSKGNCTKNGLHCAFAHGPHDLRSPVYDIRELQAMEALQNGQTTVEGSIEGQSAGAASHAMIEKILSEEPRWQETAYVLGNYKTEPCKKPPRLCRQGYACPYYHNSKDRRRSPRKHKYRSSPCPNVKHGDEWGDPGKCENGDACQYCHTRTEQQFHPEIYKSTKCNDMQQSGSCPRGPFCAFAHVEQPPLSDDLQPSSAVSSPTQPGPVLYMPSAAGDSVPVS
Oligonucleotide,bound/input enrichment
UAAGUUAUUUUGUACAGUAAGUUAUUUUCUUAACAUUUUUAUAUUGCCAUGUUUAUUUUGUUUGGGUAAUUUGGUUCAUUAAGUACAUAGCUAAGGUACAUCUUUCAUUUUUCAGUAAUU,1.66 ratio
UGUGCAUAUGAUGCUUGAGAUGGUUUUUGCAAAAGCAGACAUCGCUGCAAGGUAAUCACAAUAGAUAAAAGUGGUAUUUUAAACCUUUGAAAUAAAUGGAUGUAACUGUACCUUGGUACA,0.623 ratio
GCUGAAAAUGAAGAAGAGGCAGCUGAUGUCUGGUACAACCUGGGGCACAUAGCUGUGGGAAUCGGAGAUACAAAUUUGGCCCAUCAGUGCUUCAGGCUGGCCCUGGUCCACAACAACCAC,0.165 ratio
UCGGAUGCUGUGCUGGGUCACUUUCCGUAUCCAGAUCCUUCACAGUGGACAGAUGAAGAACUGGGAAUCCCUCCUGAUGACGAGGACUGACACUGUAAACUCUCUGGCACUCUGUACGCA,0.469 ratio
GUGCCCUCCUUCUCGCUGCGGAGCCCGAGCUGGGAACCAUUCCGGGACUGGUACCCUCCGCAUAGCCGCCUCUUCGAUCAAGCUUUCGGGGUGCCCCGGUUGCCCGAUGAGUGGUCGCAG,0.0781 ratio
GAAUCCUCCCGUGCAAAAUUUUGCAACACCAAGCUCACAGCAGCAGCAUCUUAGUCACAGUAGGGUAGUUUUGGGGCUCUGUGGCCAUGGUUUUACUCACAUGCAGGUUUGGAAAAUGUA,1.44 ratio
AGGAGGAGGUUAAAGGGUGAAAAUGGGGUGGAAGACUGUGUCAUGGCUCUGGAGACACUGUUCAGUGUCCUGCUUUCUCUGUGCAGACUGAUGGCCCCUUACACGCCCUUUCUGACUGAG,0.0611 ratio
GAUCUCGGGCCCUCCCCAGGGGCCUCCUUUCGUAUAGUCACUGCUUCUGCAUCAGAUACUUUCAGCUGCAACUCCCUACUGGGUGGGGCACCCAUUUCAGGCAGAAGUUGGUGCCCCCCU,0.123 ratio

# Sample 2 — target: CCNA1, cyclin fold, Cln2 fusion (human); method: yeast growth competition, sequencing; medium: yeast; notes: weak parent motif; relative to: not given; direction: higher = stronger binding
# Starting sequence: RBL1 docking peptide (human); GSAKRRLFGEDPP
Variant,normalised enrichment score
L7N,0.521
R5E,0.191
R5F,0.254
K4S,0.151
D11R,0.28
R5W,0.000749

# Sample 3 — method: RNA Bind-n-Seq; molecule type: RNA; medium: in vitro; tested at: 365 nM; relative to: no-protein control; direction: higher = stronger binding
# Target: RNA binding protein fox-1 homolog 2, RRM domain, GST-SBP tag (RBFOX2, Homo sapiens, UniProt O43251-10, residues 100-194)
# Notes: natural RNA segment, single round, ends assumed
# Shared flanks, not repeated: GGGAGUUCUACAGUCCGACGAUC … UGGAAUUCUCGGGUGCCAA
# Target sequence (chain): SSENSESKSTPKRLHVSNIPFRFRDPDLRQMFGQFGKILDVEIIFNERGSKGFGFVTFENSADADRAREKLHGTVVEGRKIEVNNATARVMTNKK
Oligonucleotide,RBNS enrichment (R)
AUGUUGGUCCUUUGUUUACCUCCUAAACCACAGCUGUUUGUGUUUCACAUAUGUUGUGAAUUUUCCUUGGUUCUUUUUAAAGGAAUGAUAAUAAAGUUACUUGCUUUAGG,0.219
UUAAGGGGGUCUGCAUUUUAAAUGCAGAUGUGAAGCACUUGUAUAUAAAUAAAAGUAAAUACUAUAAUACAAAGUUCCUUCUGAAAUAAAAGUAGAUCUGGUAAAAAUGU,0.652
AGGGGUGCUGUAAGAACUCAGGUUAGUAGCAUACUUGAGUAAUCAGGGUCAAAGUGUCUCACCACAAACAAAGGUAUCAAAUCACAAGCCUGGCUGGCUGAGGUGGUGUG,0.705
GAGCAGCGCUCAAGGCUCUCGCCCCUCCCCUCCCUAACCCUUACCUUCAGUCUCCACCAGCCUGAAGGGCCUCCUAGGGGAUCCUCAGGCGGCCCCCACCAGGGCACACC,0.359
CCCUUGGUUACCACCUACCCACCUUGCCUAUUUUAAGUGAAACUUACCACCAAUGAUGUGGGGAAGUGUGUUUCCCUAACAACUGGAGUUUUAGCCUAACCCUGAUCCCU,0.783
GACGAUUCCUGACCACACUGUCCAGCUCUUGCUCUCAUUAAAUGCUCUGUCUCCCGCGGAAAGCUCCCUGUGCUGCUGACUUGUCUCUGGUUUUCUGCAGUGUGGGGAGC,0.329
UGUUUUUAUACUUGGAAGUGGUGAAUUAUUUUAUAUAAAGUCAUUUAAAUAUCUAUUUAAAAGAUAGGAAGCUGCUUAUAUAUUUAAUAAUAAAAGAAGUGCACAAGCUG,0.761
UAAGAGUUUGGAAAUAGGGGCUGGAGAGAUGCCUCUGUGGUUAAGAGCAUUGGCUGCUCCUCUAGAGGACCCAGGUUCAAUUCCCAGCGCCCACACAUCAGCUCACAACU,0.31

# Further values, each from its own experiment
Molecule,target,assay,system,setting,scale,endpoint,value
"PhoQ, residues 284 288 289 292 302 303 AGGCYF","PhoP, residues 12 14 15 18 19 NHFIF (Escherichia coli, UniProt P23836)","Sort-seq, item: YFP reporter",E. coli,"PhoQ-PhoP variant library, together with: 10 µM Mg2+","relative to: high Mg2+ state, higher = stronger signaling",fold induction,19.8

# Some of these lines once more (sample 3):
Oligonucleotide,RBNS enrichment (R)
GAGCAGCGCUCAAGGCUCUCGCCCCUCCCCUCCCUAACCCUUACCUUCAGUCUCCACCAGCCUGAAGGGCCUCCUAGGGGAUCCUCAGGCGGCCCCCACCAGGGCACACC,0.359
CCCUUGGUUACCACCUACCCACCUUGCCUAUUUUAAGUGAAACUUACCACCAAUGAUGUGGGGAAGUGUGUUUCCCUAACAACUGGAGUUUUAGCCUAACCCUGAUCCCU,0.783
